Assay results of several laboratories.
A part holds a random share of what one study measured.

Series 1 — method: protein-binding microarray; form: double-stranded DNA, one strand shown; matrix: in vitro; tested at: 2540 nM top; notes: 60-bp whole probe; with: salmon DNA 0.4 mg/ml; reference: random background probes; reading: higher = stronger binding; measurement: fitted relative affinity; shared flanks, not repeated: GCCTAGCAC … GTCTTGATTCGCTTGACGCTGCTG
Target: Interferon regulatory factor 3, full length, phosphomimetic (IRF3, Homo sapiens, UniProt Q14653, residues 1-427, S386D/S396D/S398D/S402D/T404D/S405D)
Construct (chain): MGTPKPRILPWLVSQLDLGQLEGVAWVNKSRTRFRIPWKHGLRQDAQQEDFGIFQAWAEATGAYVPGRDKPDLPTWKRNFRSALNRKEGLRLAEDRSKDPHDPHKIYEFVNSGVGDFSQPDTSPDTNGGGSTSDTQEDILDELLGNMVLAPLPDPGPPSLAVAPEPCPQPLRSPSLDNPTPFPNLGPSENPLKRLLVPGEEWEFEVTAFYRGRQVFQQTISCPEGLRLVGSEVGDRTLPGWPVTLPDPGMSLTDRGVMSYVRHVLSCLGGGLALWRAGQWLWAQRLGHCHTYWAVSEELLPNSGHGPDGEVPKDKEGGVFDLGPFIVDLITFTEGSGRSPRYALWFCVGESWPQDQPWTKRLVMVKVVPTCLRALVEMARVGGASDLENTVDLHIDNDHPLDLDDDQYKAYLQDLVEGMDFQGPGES
TTAGGTCTCTGTCTCGGTTAGTGCTAG: 0.452 z-score
GACGGTATCGGTCTCGAGACGTGCTAG: 4.7 z-score
GAAGATTTCAATTAGAAAAAGTGCTAG: 0.714 z-score
TTAGACTTCGGGTTTCGATTAGTGCTA: 1.26 z-score
TAAGGTTTCGACTTTCGGTTAGTGCTA: 3.78 z-score
GACGGTTTCCTTCTCCTGACGTGCTAG: 10.4 z-score
GACGGTTTCGGGCATCGGGACGTGCTA: 2.77 z-score
TTAGGCATCGACTTTCGGTTAGTGCTA: 0.789 z-score
TTAGGTTCCCTTGTCCTTTAGTGCTAG: 2.58 z-score
GACGGTCTCCTTCTCCGGACGTGCTAG: 4.17 z-score
ATAGGACTGGGTTTCGGTTAGTGCTAG: 3.29 z-score
ACTGTGTTTTGGATGTCAGAGTGCTAG: 0.486 z-score
TTTGGACTGGACTTTCGGTTAGTGCTA: 0.959 z-score
TTAGAACTCGGGACTGGATTAGTGCTA: -0.593 z-score
GACGGACTGCCTTTCCTGACGTGCTAG: 0.0368 z-score
TTAGATTTCAGTATCCATTAGTGCTAG: 3.31 z-score
GACGATATCAGTTTCCAGACGTGCTAG: 4.32 z-score
TTATAACTGAGTATCGATTAGTGCTAG: 0.454 z-score
TTAGCTATCGGGTTTCGGTTAGTGCTA: 2.62 z-score
AACGATTTCGGGTATCGAGACGTGCTA: 1.42 z-score
CCGTGTTTCTCAACCATTTTGTGCTAG: 1.24 z-score
GACGGACAGGACTATCGGGACGTGCTA: -0.471 z-score
TTAGGACGGGACTTTCGGTTAGTGCTA: 1.22 z-score
TAAGATATCGGGTTTCGATTAGTGCTA: 2.12 z-score
CTGCATCTGATTTCTCAAACAGTGCTA: 0.01 z-score

Series 2 — method: universal PBM; form: double-stranded DNA, one strand shown; matrix: in vitro; tested at: not given; reading: higher = stronger binding; measurement: E-score
Target: Sal-like protein 4, full length isoform B (SALL4, Homo sapiens, UniProt Q9UJQ4-2, residues 1-616)
Notes: 8-mer, flanks averaged, mean of replicates
ATTGATAC: 0.188
AGCCGTGA: -0.0902
ATCCAACA: 0.161
GGTAGCGA: -0.0834
ATGCCACC: -0.218
CCATGAGA: -0.00226
AGTCAGGC: -0.0986
ACAGCGCT: -0.0633
ACTCACTA: -0.0241
GCGGCACA: -0.141
GGCCTCGA: -0.237
AGTCAGTG: 0.00904
CTCTCCTA: 0.0577
AAGATTCT: -0.0132
AGCATACT: 0.2
AGTCAGAG: -0.178
CTAAGACC: -0.191
CAAGGCCC: -0.265
AGGACCAT: -0.047
ATGCACAA: 0.152
ACCCCAGG: -0.393

Series 3 — method: RNA Bind-n-Seq; form: RNA; matrix: in vitro; tested at: 365 nM; reference: no-protein control; reading: higher = stronger binding; measurement: RBNS enrichment (R)
Target: RNA binding protein fox-1 homolog 2, RRM domain, GST-SBP tag (RBFOX2, Homo sapiens, UniProt O43251-10, residues 100-194)
Notes: natural RNA segment, single round, ends assumed
Shared flanks, not repeated: GGGAGUUCUACAGUCCGACGAUC … UGGAAUUCUCGGGUGCCAA
Target sequence (chain): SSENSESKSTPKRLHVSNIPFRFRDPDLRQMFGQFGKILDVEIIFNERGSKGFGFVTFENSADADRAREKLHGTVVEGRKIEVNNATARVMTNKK
GUUUAAUAAUAAGAAAAAGGCCAUUUCAUUUUAAAUUGUGACCUAUAAUUCUUUGUCUUGGGUUGGUAAUUCAGGAUUCAUUUGGAAAGUGGGUAAAAGGGGCUUCAAAA: 0.82
AAUAAGUAAUUUAUUGUAAGACAACAUCAAGCCAUGGAAACUUGGCAGAAGAUUCAAAGCAGCUUAAACAGCACUUUUAAAUUAACUCCUAAGCGUUACAUGGUUGUGAC: 0.233
ACUUUUAUGGCGUUAAUUUCCUGCCACUACAGAUCUUUUGAAGAUUGCUGGAAUACUGGUGUCUGUUAGAAUGCUUCAGACUACAGAUGUAAUUAAAGGCUUUUCUUAAU: 1.03
AUCCAUUUUGUGGAUUUUAUGUGUUUGUGGCUUAAUAAUCAUAGUAACAACAAUAAUACCUUUUUCUCCAUUUUGCUUGCAGGAAACAUACCUUAAGUUUUUUUUGUUUU: 2.74
ACCUGUGUACUUGUACAUUAAAAACAAAAUUAUUGCUGAGUAAGAAGAUAUUUAAUAUAUGAAACUCUCAUAACUGUCAUUAACAGUAUUAAUUAGGUCUAAAUACCGUG: 0.28
AGAACAGCUGGAGUUUCUGUUGAUGUGAAGAAGGCAGCUCUUGGCCUCCCACUCCCACACUUCUUUGCCUAUAAAUCUUCCUAGCAGCAAUUUGAGCUACCUGAGGAGGA: 1.09
UUGGUGUCAGGGUCCUGUGGAGUUGUGCCCCACACUGAGCUCUGUACAGUAUUGCUGCUCAUACACUGAGGAGGUGGGGUCGUCUUCUGAGGAUAUGAACUACACUGCUU: 0.471
CUCAGUGCACUUUGAACCUGGAAAACAAUCCCAACAGGCCCGUGGGACCAUGACUUAGGGAGGUGGGACCCACCCACCCCCAUCCAGGAACCGUGACGUCCAAGGAACCA: 0.319
GACUAUAUAUAGGGAUCACAAAGUGUCACAUGUUAGAAUGCUGACCUUCCACAUGGGGUUAUUGUGAGUCAUCAGAGCAUAUUUAUUAUAACUUAUUGUUCAUAUUCAUU: 0.774
UACACUGUUCAUUUUUAAAAUUCCUUCACACUGUAAUUUAAUGUGUUUUAUAUUCUUUUGUAGUAAAACAACAUAACUCAGAUUUCUACAGGAGACAGUGGUUUUAUUCG: 0.419
CCACUUCCCGUGCCUAUGAUUUGCUCUAGCAUUUCUGCCACCUGACAAGGAGAGGAGCUUGCUAAAGUUUAAAGUUUAUUUCAACGCUAAGAUCCCAACCUUCCGAUCUC: 0.377
CUGAAGCAAACAGUGUCCCUUCUGGCUGUGUUGGAGCCUCCCCAGUAACCACCUAUUUAUUUUACCUCUUUCCCAAACCUGGAGCAUUUAUGCCUAGGCUUGUCAAGAAU: 0.194

Series 4 — method: RNA Bind-n-Seq; form: RNA; matrix: in vitro; tested at: not given; notes: RNA with constant flanks, ends assumed; reference: input RNA pool; reading: higher = stronger binding; measurement: bound/input enrichment
Target: RING finger protein unkempt homolog, zinc fingers 1-6, GST-SBP tag (UNK, Homo sapiens, UniProt Q9C0B0, residues 30-357)
Shared flanks, not repeated: GGGAGUUCUACAGUCCGACGAUC … CAACAGAGGAUUGAGCAUCA
Residues (chain): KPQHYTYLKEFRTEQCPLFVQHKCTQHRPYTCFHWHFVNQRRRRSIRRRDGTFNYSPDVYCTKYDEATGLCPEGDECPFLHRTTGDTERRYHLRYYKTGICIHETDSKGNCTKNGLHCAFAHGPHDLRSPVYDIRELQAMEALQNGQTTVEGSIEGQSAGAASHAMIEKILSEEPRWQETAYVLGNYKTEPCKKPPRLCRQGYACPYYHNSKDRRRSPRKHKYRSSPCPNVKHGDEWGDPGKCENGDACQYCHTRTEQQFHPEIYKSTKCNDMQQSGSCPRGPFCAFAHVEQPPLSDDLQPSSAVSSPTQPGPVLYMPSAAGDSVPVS
GACUGAUUCUCAACUGAACAUUAUGUCGUUACUUUGAUAAGCAUUCCACUUUUGUUAUUUAUCCGUGCUAUCUUUUUUUUUUACGUGUUAAAUCUUGUGAUUAUUAAAAUAAAGUACCAU: 0.213 ratio
GGAGGCUAUGGAGGCUAUGAUGAUUACAAUGGCUAUAAUGAUGGCUAUGGAUUUGGGUCAGACCGAUUUGGAAGAGACCUCAAUUACUGUUUUUCAGGAAUGUCUGAUCACAGAUACGGG: 0.15 ratio
UGAUAAAGCCUUGACUAUGCAUGCUGCUUUCAUUUUGAUAAACUUUUUAUUUUUUAACUACCGCUUUAUUAGCAAUUCCCAAAUGCUGCAAUUUGCUGAUUUCUUCACACAGACAGCUGG: 1.06 ratio
UUACAGUCAUUGAUGGACUCUAUUUUUUUAUUAUUACUUGGACCUUGGUCGUUUUUAUACCCGCAAAAUGUCUUGUUUUAAUUUGUGUUUUUUGGGGGGAGGGAGGGAGUGAACUUGCUG: 2.32 ratio
GCGGAGCUUCUGAAAAAUGCAGAUGAGCUAGUCAAACAGAAAAUUCAUCCAACAUCAGUUAUCCGUGGCUAUCGUCUUGCCUGCAAGGAAGCGGUGCGUUAUAUCAAUGAGAACCUGAUU: 0.0736 ratio
CACCACCACCACCACCACCCGUGCAGUUUCACAUGGAAGCUUGUACCUGUGUUACCUCUGCCGUAAGUUGCAUGUGCGAAGUAUAACCAAAGCGAUCAUGUUUAUGUUGACCCUGCCAUA: 0.302 ratio
GAGAACAGCAACAUACAGGUCCUUUCUGAAAGAUCUGCUACUGAAGUAGACAACAAUUUCCGCAAACCACCUCCGUUUUUCCCUCCAGGAGCUCCUCCCACUCACCUUCCACCUCCUCCA: 0.376 ratio
CCGGCCCCAGUGCCAUCCAGAAGAAAUCCCCCUGGCGGCAAGUCCAGCCUCGUCUUGGGUCCGCUCUGACUGUCCUGAACGCUGUCGUUCUGUCUGUUUCCUCCAUGCUUGUGAACUGCA: 0.151 ratio
GACAUUGCAGAAAAUGCUUUGAAAAAUUCCUCAGAAACAGAAAUACCUACUGUCAGCGUUUCCGCUGAUGAAGAAUUCCUUCCCUUCAAAGAAAAUACAUUUGACCUGGUGGUUAGCAGU: 0.335 ratio
UGUGGGAUAUCACAUCAGUGGUUCCAAGAUUUCAAAGUGGUGAAAUGAAAAUGGAGCAGCCCGUAUGUUUUAUUAUUUUAUGGGUCUUGAGUGCAUUUGAAGGUGUCCUUCAGUUCCCAC: 0.159 ratio
ACCAAUGAAAAUCAGAAGACUAAUACUGUGGCUAAACAGGAGCAGCGACCUAUAAAAAAGAACCGUCUCUAUUCAACAGAUUUUAUAGUGUUUAAUGACAAUGAUGGUUCAGAUGAUGAG: 0.335 ratio

Repeated from above (series 3):
AGAACAGCUGGAGUUUCUGUUGAUGUGAAGAAGGCAGCUCUUGGCCUCCCACUCCCACACUUCUUUGCCUAUAAAUCUUCCUAGCAGCAAUUUGAGCUACCUGAGGAGGA: 1.09
UUGGUGUCAGGGUCCUGUGGAGUUGUGCCCCACACUGAGCUCUGUACAGUAUUGCUGCUCAUACACUGAGGAGGUGGGGUCGUCUUCUGAGGAUAUGAACUACACUGCUU: 0.471
CUCAGUGCACUUUGAACCUGGAAAACAAUCCCAACAGGCCCGUGGGACCAUGACUUAGGGAGGUGGGACCCACCCACCCCCAUCCAGGAACCGUGACGUCCAAGGAACCA: 0.319
GACUAUAUAUAGGGAUCACAAAGUGUCACAUGUUAGAAUGCUGACCUUCCACAUGGGGUUAUUGUGAGUCAUCAGAGCAUAUUUAUUAUAACUUAUUGUUCAUAUUCAUU: 0.774
UACACUGUUCAUUUUUAAAAUUCCUUCACACUGUAAUUUAAUGUGUUUUAUAUUCUUUUGUAGUAAAACAACAUAACUCAGAUUUCUACAGGAGACAGUGGUUUUAUUCG: 0.419
CCACUUCCCGUGCCUAUGAUUUGCUCUAGCAUUUCUGCCACCUGACAAGGAGAGGAGCUUGCUAAAGUUUAAAGUUUAUUUCAACGCUAAGAUCCCAACCUUCCGAUCUC: 0.377
CUGAAGCAAACAGUGUCCCUUCUGGCUGUGUUGGAGCCUCCCCAGUAACCACCUAUUUAUUUUACCUCUUUCCCAAACCUGGAGCAUUUAUGCCUAGGCUUGUCAAGAAU: 0.194
